# Measured values pooled from the literature.
# Parts stem from different laboratories: compare values within a part only. Values joined by “and” are separate records of one study, mostly repeats; a detail may differ. Numbers after ± are the reported error.
# Chain of UniProt Q9UQM7 (whole entry, looked up): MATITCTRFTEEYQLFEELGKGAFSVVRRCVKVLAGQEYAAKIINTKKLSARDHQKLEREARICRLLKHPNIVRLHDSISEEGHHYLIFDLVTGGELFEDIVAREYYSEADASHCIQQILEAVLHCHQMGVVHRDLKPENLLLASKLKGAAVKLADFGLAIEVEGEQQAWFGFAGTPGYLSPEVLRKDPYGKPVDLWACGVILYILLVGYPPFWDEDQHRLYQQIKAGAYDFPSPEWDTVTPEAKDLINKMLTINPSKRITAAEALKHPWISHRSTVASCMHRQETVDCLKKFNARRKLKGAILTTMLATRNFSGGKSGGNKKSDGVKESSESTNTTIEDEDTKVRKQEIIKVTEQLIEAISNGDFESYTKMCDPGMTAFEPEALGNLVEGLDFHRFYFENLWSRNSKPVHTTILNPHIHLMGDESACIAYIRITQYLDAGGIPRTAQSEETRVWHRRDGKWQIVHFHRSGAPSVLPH
# Chain of UniProt O75417 (whole entry, unmodified, looked up): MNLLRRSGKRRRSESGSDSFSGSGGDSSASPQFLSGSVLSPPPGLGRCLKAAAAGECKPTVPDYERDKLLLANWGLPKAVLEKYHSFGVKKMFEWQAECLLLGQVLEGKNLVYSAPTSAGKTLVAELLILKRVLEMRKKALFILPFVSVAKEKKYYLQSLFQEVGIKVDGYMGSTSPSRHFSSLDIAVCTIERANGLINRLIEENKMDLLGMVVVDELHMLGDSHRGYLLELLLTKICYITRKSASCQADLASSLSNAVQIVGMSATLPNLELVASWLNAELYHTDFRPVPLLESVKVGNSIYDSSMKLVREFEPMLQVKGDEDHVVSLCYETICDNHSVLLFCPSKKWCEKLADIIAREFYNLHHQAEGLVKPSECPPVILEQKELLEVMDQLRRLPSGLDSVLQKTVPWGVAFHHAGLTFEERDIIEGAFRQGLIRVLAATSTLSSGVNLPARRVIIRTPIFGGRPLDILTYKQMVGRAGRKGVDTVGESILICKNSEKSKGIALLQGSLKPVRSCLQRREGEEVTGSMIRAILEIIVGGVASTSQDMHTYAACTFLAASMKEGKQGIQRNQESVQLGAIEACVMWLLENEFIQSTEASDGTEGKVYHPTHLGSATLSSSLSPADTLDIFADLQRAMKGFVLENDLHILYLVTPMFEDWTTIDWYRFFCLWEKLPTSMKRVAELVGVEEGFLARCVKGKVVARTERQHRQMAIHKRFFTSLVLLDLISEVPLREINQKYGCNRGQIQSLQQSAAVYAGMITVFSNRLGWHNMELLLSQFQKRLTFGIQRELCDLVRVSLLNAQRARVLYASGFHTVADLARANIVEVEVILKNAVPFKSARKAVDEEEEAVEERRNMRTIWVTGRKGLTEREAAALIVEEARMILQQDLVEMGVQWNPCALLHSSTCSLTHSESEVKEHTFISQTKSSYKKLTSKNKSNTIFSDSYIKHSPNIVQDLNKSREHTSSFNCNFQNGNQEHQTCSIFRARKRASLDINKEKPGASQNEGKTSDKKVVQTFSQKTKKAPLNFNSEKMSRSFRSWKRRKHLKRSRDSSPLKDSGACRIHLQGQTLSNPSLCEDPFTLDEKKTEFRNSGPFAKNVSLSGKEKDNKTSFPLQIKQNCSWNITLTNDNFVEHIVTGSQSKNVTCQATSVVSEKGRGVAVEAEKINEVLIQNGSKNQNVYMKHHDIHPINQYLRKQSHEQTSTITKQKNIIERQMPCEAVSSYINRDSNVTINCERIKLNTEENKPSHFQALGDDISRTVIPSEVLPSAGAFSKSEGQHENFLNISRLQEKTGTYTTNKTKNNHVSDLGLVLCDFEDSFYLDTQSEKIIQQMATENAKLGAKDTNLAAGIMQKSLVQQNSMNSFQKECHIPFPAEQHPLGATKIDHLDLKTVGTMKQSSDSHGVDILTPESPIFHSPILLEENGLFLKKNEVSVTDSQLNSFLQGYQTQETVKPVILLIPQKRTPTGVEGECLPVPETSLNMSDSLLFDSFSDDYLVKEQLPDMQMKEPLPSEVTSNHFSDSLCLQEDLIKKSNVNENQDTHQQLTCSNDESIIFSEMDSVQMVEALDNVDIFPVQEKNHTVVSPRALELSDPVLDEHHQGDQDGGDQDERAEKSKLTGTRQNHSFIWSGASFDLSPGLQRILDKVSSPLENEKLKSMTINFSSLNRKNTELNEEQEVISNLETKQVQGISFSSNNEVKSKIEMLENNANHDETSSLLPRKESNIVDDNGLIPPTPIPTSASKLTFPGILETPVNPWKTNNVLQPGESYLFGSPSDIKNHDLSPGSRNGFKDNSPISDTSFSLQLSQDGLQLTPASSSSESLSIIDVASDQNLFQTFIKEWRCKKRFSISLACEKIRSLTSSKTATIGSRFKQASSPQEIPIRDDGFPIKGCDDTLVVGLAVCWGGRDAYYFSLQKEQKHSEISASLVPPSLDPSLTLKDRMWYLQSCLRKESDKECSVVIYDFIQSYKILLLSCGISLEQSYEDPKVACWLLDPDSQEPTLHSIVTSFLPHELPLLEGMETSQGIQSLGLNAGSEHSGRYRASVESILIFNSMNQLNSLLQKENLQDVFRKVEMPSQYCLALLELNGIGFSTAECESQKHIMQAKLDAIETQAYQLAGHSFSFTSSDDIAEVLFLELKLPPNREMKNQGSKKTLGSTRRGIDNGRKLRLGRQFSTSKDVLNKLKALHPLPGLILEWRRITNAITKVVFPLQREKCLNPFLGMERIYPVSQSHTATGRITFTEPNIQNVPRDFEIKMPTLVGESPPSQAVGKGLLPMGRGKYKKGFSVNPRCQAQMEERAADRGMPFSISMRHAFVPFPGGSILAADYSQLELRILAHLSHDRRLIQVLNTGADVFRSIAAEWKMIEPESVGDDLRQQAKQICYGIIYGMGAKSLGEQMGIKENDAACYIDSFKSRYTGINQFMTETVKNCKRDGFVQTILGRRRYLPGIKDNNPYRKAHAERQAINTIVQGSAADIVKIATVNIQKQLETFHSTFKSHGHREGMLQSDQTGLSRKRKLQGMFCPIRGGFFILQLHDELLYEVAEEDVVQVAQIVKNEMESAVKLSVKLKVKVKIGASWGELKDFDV

# Sample 1
# Target: Replicase polyprotein 1ab, main protease (rep, Severe acute respiratory syndrome coronavirus 2, UniProt P0DTD1)
# Effect on: enzyme activity
# Mode: inhibitor
# Tested at: 20 µM
# Notes: hit confirmation, with DTT
Compound,inhibition
O=C(O)c1ccc(N2C(=O)/C(=C\c3ccc(-c4ccc([N+](=O)[O-])cc4)o3)C=C2c2ccccc2)cc1,21.6%
CN(C)CCNc1nc2cc(O)ccc2c2c1C(=O)c1ccccc1-2,42.2%
COc1nc2ccc(Br)cc2cc1[C@@H](c1ccccc1)[C@@](O)(CCN(C)C)c1cccc2ccccc12,-11.1% and -19.8%

# Sample 2
# Target: Replicase polyprotein 1ab, polymerase (rep, Severe acute respiratory syndrome coronavirus 2, UniProt P0DTD1)
# Effect on: enzyme activity
# Mode: inhibitor
# Tested at: 20 µM
Structure (SMILES),inhibition
O=C(N[C@@H]1CC[C@@H](c2cccc(F)c2F)CN(CC(F)(F)F)C1=O)N1CCC(n2c(=O)[nH]c3ncccc32)CC1,-1.58%
CCOC(=O)C1=C(C)NC(c2ccccc2)=C(C(=O)OCc2ccc([N+](=O)[O-])cc2)C1C#Cc1ccccc1 (centres unmarked),2.45%
CCCCc1ncc(/C=C(\Cc2cccs2)C(=O)O)n1Cc1ccc(C(=O)O)cc1,-5.23%
CC(C)Oc1cccc(-n2c(CCc3c[nH]c4ccc(Br)cc34)nc3ccccc3c2=O)c1,-1.35%
NC1(Cc2ccc(Cl)cc2)CCN(c2ncnc3[nH]ccc23)CC1,3.06%
COc1ccc(/C=C2\CCCN=C2c2cccnc2)c(OC)c1,-1.63%
O=C(NCCCN1CCOCC1)c1cnn2c(-c3ccccc3)cc(-c3ccccc3)nc12,-0.69%
C[C@H](Cc1ccc2c(c1)OC(C(=O)O)(C(=O)O)O2)NC[C@H](O)c1cccc(Cl)c1,4.75%
Cc1ccc(Nc2ncc3c(n2)N(C)C(=O)N(c2cc(NC(=O)c4cccc(C(F)(F)F)c4)ccc2C)C3)cn1,2.86%
O=C1c2c(O)cccc2Cc2cccc(O)c21,69.6%
Cc1cc(-c2ccc(/N=N/c3ccc4c(S(=O)(=O)O)cc(S(=O)(=O)O)c(N)c4c3O)c(C)c2)ccc1/N=N/c1ccc2c(S(=O)(=O)O)cc(S(=O)(=O)O)c(N)c2c1O,104%
C1Cc2[nH]nc(-c3nn[nH]n3)c2C1,-3.5%
COc1cc2c(cc1OC)-c1c(C)c3ccc(OC)c(OC)c3c[n+]1CC2,-0.32%
c1cc(CN2CCCNCCNCCCNCC2)ccc1CN1CCCNCCNCCCNCC1,-4.09%
Nc1ccc(S(=O)(=O)Nc2ncccn2)cc1,5.7%
Cl/C=C/C[N+]12CN3CN(CN(C3)C1)C2,1.21%
Cc1noc2c1-c1ccccc1C(c1ccc(Cl)cc1)=N[C@H]2CC(N)=O,-0.34%
CCS(=O)(=O)N1CCN(c2ccc(Nc3ncc(C(N)=O)c(NC4CC4)n3)cc2)CC1,3.51%
O=C(Nc1ccccc1)OCC(CN1CCCCC1)OC(=O)Nc1ccccc1 (centres unmarked),-4.55%
CC1(c2ccccc2)OC(C(=O)O)=CC1=O (centres unmarked),3.83%
Cc1cnc(-c2ccccc2C(C)C)nc1NCc1ccc(-n2ccnn2)cc1,0.58%
CC1Cc2ccccc2N1NC(=O)c1ccc(Cl)c(S(N)(=O)=O)c1 (centres unmarked),17%
COCCCN1CCC(NC(=O)c2cc(Cl)c(N)c3c2OCC3)CC1,-6.15%
CC[C@H]1OC(=O)C[C@@H](O)[C@H](C)[C@@H](O[C@@H]2O[C@H](C)[C@@H](O[C@H]3C[C@@](C)(O)[C@@H](O)[C@H](C)O3)[C@H](N(C)C)[C@H]2O)[C@@H](CC=O)C[C@@H](C)C(=O)/C=C/C(C)=C/[C@@H]1CO[C@@H]1O[C@H](C)[C@@H](O)[C@@H](OC)[C@H]1OC,-10.9%
Cc1oc(=O)oc1CN1CCN(c2cc3c(cc2F)c(=O)c(C(=O)O)c2n3C(C)S2)CC1 (centres unmarked),4.06%

# Sample 3
# Organism: Vesicular stomatitis virus
# Effect on: pseudovirus infection
# Technique: FDA-approved drug library screen
# Tested at: concentration not given
# Notes: SARS-CoV-2 spike pseudotype
# Reference: vehicle
SMILES,GFP-positive cells [%]
Nc1ccc(S(=O)(=O)c2ccc(N)cc2)cc1,78
N.N.[Cl][Pt][Cl],86.2
O=[As]O[As]=O (centres unmarked),104

# Other studies, line by line
# rep main protease: Replicase polyprotein 1ab, main protease (rep, Severe acute respiratory syndrome coronavirus 2, UniProt P0DTD1)
SMILES,tested on,test,test system,conditions,how to read,endpoint,value
CCCCNC(=O)C1CCCN(Cc2nc(-c3ccc(Cl)cc3)oc2C)C1 (centres unmarked),SARS-CoV-2,cytopathic effect,USA_WA1/2020,"round 2, 5-point",,maximum response,48.2%
Cc1nc(C(=O)N2CC[C@@H]([C@@H]3CCCN3C(=O)c3cc(O)ccc3Cl)C2)cc(=O)[nH]1,rep main protease,"enzyme activity, inhibitor",,"5 µM, mean of runs",,inhibition,10.9%
OC1CCCCC1N1CCC(c2ccccc2)CC1 (centres unmarked),mouse MPNST tumor cells,"high-content nuclear imaging, item: cell number",,"10 µM, 12 h, mean of 2 replicates","reference: plate mean, higher = more cells",nuclei count,0.652 z-score
CC(C)C[C@H](NC(=O)CNC(=O)[C@H](CC(C)C)NC(=O)[C@H](CC(C)C)NC(=O)[C@H](CCCCN)NC(=O)[C@@H](N)CCCCN)C(=O)N[C@@H](CC(C)C)C(=O)N[C@@H](CC(C)C)C(=O)N[C@@H](CCCCN)C(=O)N[C@@H](CC(C)C)C(=O)N[C@@H](CCCCN)C(=O)N[C@@H](CC(C)C)C(=O)N[C@@H](CCCCN)C(=O)O,HEK-293T,cell death,,"24 h, 10% cell death",,lowest cytotoxic concentration,256 µg/mL
CC(C)[C@]12O[C@H]1[C@@H]1O[C@]13[C@]1(O[C@H]1C[C@H]1C4=C(CC[C@@]13C)C(=O)OC4)[C@@H]2O,mouse MPNST tumor cells,"high-content nuclear imaging, item: cell number",,"10 µM, 12 h, mean of 2 replicates","reference: plate mean, higher = more cells",nuclei count,0.991 z-score
O=C(NC(Cc1ccccc1)C(=O)NCc1ccccn1)OCc1ccccc1 (centres unmarked),SARS-CoV-2,"plaque formation, plaque reduction",Vero E6,72 h,,EC50,20.7 ± 1.1 µM
CC(C)(C)NCc1ccc(Nc2ccnc3cc(Cl)ccc23)cc1O,SARS-CoV-2,cytopathic effect,USA_WA1/2020,"round 2, 5-point",,maximum response,75.5%
C[C@@H]1O[C@@H](O[C@H]2CC[C@]3(C=O)[C@H]4CC[C@]5(C)[C@@H](C6=CC(=O)OC6)CC[C@]5(O)[C@@H]4CC[C@]3(O)C2)[C@H](O)[C@H](O)[C@H]1O,"CAMK2A (Homo sapiens, UniProt Q9UQM7)","enzyme activity, inhibitor",,10 µM,,inhibition,-3%
Oc1ccc(/C=N/c2ccccc2/N=C/c2ccc(O)c(O)c2)cc1O,vaccinia virus,viral replication,HT-1080,,,EC50,18 µM
Cn1cnc(Cn2c(=O)[nH]/c(=N\c3cc4cn(C)nc4cc3Cl)n(Cc3cc(F)c(F)cc3F)c2=O)n1,,,"human, moderate renal impairment, plasma","oral, 375 mg single dose",,Vz/F,19.9 L
COc1ccc(N(Cc2cc(Cl)cs2)C(=O)Cc2cncc3ccccc23)cc1,SARS-CoV-2,,"Calu-3, B.1.617.2 Delta",,,EC50,9.4 µM
CCOC(=O)CC(SP(=S)(OC)OC)C(=O)OCC (centres unmarked),mouse MPNST tumor cells,"high-content nuclear imaging, item: cell number",,"10 µM, 12 h, mean of 2 replicates","reference: plate mean, higher = more cells",nuclei count,-0.36 z-score
CN(C)c1ccc(N(Cc2cc(Cl)cs2)C(=O)Cc2cncc3ccccc23)cc1,SARS-CoV-2,"viral replication, item: nucleocapsid","NHBE, Omicron BA.5","1 µM, 3 h pretreatment",,inhibition,73%
O=C(CCc1cncc2ccccc12)N1CCc2cccc(-c3cn(CCO)nn3)c21,rep main protease,"enzyme activity, inhibitor",,"5 µM, run 1",,inhibition,18.9%
NC(=O)c1ncn([C@@H]2O[C@H](CO)[C@@H](O)[C@H]2O)n1,Mammarenavirus lassaense,"viral replication, inhibitor",Vero,48 h,,IC50,9 mg/L
CCC(CC)COC(=O)[C@H](C)N[P@](=O)(OC[C@H]1O[C@@](C#N)(c2ccc3c(N)ncnn23)[C@H](O)[C@@H]1O)Oc1ccccc1,SARS-CoV-2 USA-WA1/2020,time-of-addition,A549-ACE2,10 µM,,time of addition when activity is lost,2 h post-infection
CC(Cc1cccnc1)Nc1nccc(-c2cnn(-c3ccccc3F)c2)n1 (centres unmarked),Lassa mammarenavirus,viral replication,Huh-7,"10 µM, 72 h",,remaining activity,40%
C[C@H]1CCC/C=C/C2C[C@H](O)C[C@@]2(O)C/C=C/C(=O)O1 (some centres unmarked),"DNA polymerase theta, ATPase domain (POLQ, Homo sapiens, UniProt O75417)","enzyme activity, inhibitor",,77 µM,reference: untreated,remaining activity,105%
Nc1ncnc2c1ncn2[C@@H]1O[C@H](CSCC[C@H](N)C(=O)O)[C@@H](O)[C@H]1O,SARS-CoV-2,"plaque formation, plaque reduction",Vero E6,72 h,,EC50,> 50 µM

# Excerpt of the above (other studies, line by line):
SMILES,tested on,test,test system,conditions,how to read,endpoint,value
Cc1nc(C(=O)N2CC[C@@H]([C@@H]3CCCN3C(=O)c3cc(O)ccc3Cl)C2)cc(=O)[nH]1,rep main protease,"enzyme activity, inhibitor",,"5 µM, mean of runs",,inhibition,10.9%
O=C(CCc1cncc2ccccc12)N1CCc2cccc(-c3cn(CCO)nn3)c21,rep main protease,"enzyme activity, inhibitor",,"5 µM, run 1",,inhibition,18.9%
CC(C)C[C@H](NC(=O)CNC(=O)[C@H](CC(C)C)NC(=O)[C@H](CC(C)C)NC(=O)[C@H](CCCCN)NC(=O)[C@@H](N)CCCCN)C(=O)N[C@@H](CC(C)C)C(=O)N[C@@H](CC(C)C)C(=O)N[C@@H](CCCCN)C(=O)N[C@@H](CC(C)C)C(=O)N[C@@H](CCCCN)C(=O)N[C@@H](CC(C)C)C(=O)N[C@@H](CCCCN)C(=O)O,HEK-293T,cell death,,"24 h, 10% cell death",,lowest cytotoxic concentration,256 µg/mL
CN(C)c1ccc(N(Cc2cc(Cl)cs2)C(=O)Cc2cncc3ccccc23)cc1,SARS-CoV-2,"viral replication, item: nucleocapsid","NHBE, Omicron BA.5","1 µM, 3 h pretreatment",,inhibition,73%
NC(=O)c1ncn([C@@H]2O[C@H](CO)[C@@H](O)[C@H]2O)n1,Mammarenavirus lassaense,"viral replication, inhibitor",Vero,48 h,,IC50,9 mg/L
O=C(NC(Cc1ccccc1)C(=O)NCc1ccccn1)OCc1ccccc1 (centres unmarked),SARS-CoV-2,"plaque formation, plaque reduction",Vero E6,72 h,,EC50,20.7 ± 1.1 µM
C[C@@H]1O[C@@H](O[C@H]2CC[C@]3(C=O)[C@H]4CC[C@]5(C)[C@@H](C6=CC(=O)OC6)CC[C@]5(O)[C@@H]4CC[C@]3(O)C2)[C@H](O)[C@H](O)[C@H]1O,"CAMK2A (Homo sapiens, UniProt Q9UQM7)","enzyme activity, inhibitor",,10 µM,,inhibition,-3%
